{"data": "Measurements pooled from the literature", "TDP1": "Tyrosyl-DNA phosphodiesterase 1 (TDP1, Homo sapiens, UniProt Q9NUW8)", "note": "Compare with care: the assays were run in different laboratories. Several values in a cell are separate wells, animals, samples, runs or records. ± gives the spread as reported.", "chain of UniProt Q9NUW8 (whole entry, looked up)": "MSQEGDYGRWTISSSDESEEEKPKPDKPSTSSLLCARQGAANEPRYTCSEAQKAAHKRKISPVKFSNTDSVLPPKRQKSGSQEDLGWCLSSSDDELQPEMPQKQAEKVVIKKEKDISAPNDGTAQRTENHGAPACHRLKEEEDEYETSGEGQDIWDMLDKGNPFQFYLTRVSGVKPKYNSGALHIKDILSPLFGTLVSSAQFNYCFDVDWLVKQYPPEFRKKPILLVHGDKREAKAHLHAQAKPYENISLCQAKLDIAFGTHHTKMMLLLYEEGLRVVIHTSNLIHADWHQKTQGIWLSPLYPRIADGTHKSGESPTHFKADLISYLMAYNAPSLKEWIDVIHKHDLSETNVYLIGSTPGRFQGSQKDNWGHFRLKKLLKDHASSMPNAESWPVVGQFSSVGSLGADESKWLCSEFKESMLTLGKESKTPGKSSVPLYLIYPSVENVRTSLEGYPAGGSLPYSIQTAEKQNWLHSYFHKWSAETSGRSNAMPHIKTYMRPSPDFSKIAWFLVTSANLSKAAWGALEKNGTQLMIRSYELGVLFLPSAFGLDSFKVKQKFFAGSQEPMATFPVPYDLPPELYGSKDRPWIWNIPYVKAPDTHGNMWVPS"}
{"Compound": "CCCCCCCC(=O)Oc1c(C)c(OC)c2c(/C=C/c3ccccc3)c(CCCCCC)c(=O)oc2c1C", "target or system": "normal human liver cell line", "test": "cytotoxicity, SRB", "conditions": "72 h", "endpoint": "IC50", "result": "> 50 µM"}
{"Compound": "N=C(N)NCCC[C@@H]1NC(=O)[C@H](CCCNC(=N)N)NC(=O)[C@@H](C(c2ccccc2)c2ccccc2)NC(=O)[C@H](Cc2c[nH]c3ccccc23)NC(=O)[C@@H](C(c2ccccc2)c2ccccc2)NC(=O)[C@@H](CCCNC(=N)N)NC(=O)[C@@H](CCCNC(=N)N)NC1=O", "target or system": "human red blood cells", "test": "haemolysis", "conditions": "2 h, 37 °C", "endpoint": "HC50", "result": "335 µg/mL"}
{"Compound": "Cc1c(C=NOCc2ccc3nc(-c4ccccc4)c(Nc4ccc(C(=O)O)cc4)n3c2)cnn1CCC(=O)O (mixture of isomers)", "target or system": "TDP1", "test": "enzyme activity, inhibitor", "conditions": "100 µM, unpurified compound", "endpoint": "inhibition", "result": "7.9%"}
{"Compound": "Cl.NCc1ccc2c(c1)CN(C1CCC(=O)NC1=O)C2=O (stereo not drawn)", "target or system": "SNU-886", "test": "CellTiter-Glo", "conditions": "concentration not given, 72 h", "endpoint": "minimum viability", "result": "87 ± 5.39%"}
{"Compound": "Nc1nc2c(ncn2COCCO)c(=O)[nH]1", "target or system": "MDBK", "test": "cell growth or viability, MTT", "conditions": "72 h", "endpoint": "CC50", "result": "256 µg/mL"}
{"Compound": "Cn1nc(CSc2ccccc2)c(C=NOCc2ccc(-c3nc4cc(-c5ccccc5)ccn4c3Nc3ccc(C(=O)O)cc3)cc2)c1Cl (mixture of isomers)", "target or system": "TDP1", "test": "enzyme activity, inhibitor", "conditions": "100 µM, unpurified compound", "endpoint": "inhibition", "result": "61.6%"}
{"Compound": "CC1(C)CC[C@@]2(CO)C(=C3C=C[C@@H]4[C@@]5(C)CC[C@H](O)[C@@](C)(CO)[C@@H]5CC[C@@]4(C)[C@]3(C)C[C@@H]2O)C1", "target or system": "LO2", "conditions": "50 µM, 24 h", "endpoint": "viability", "result": "91% and 106% and 84% and 83% and 90% and 97%"}
{"Compound": "C=CCOc1c(C)c(OC)c(C(=O)/C=C/c2ccccc2)c(OCC=C)c1C", "target or system": "normal human liver cell line", "test": "cytotoxicity, SRB", "conditions": "72 h", "endpoint": "IC50", "result": "> 50 µM"}
{"Compound": "O=C(Nc1ccc(O)c(=O)cc1)c1ccccc1", "target or system": "HepDES19", "test": "cell growth or viability, MTS", "conditions": "72 h", "endpoint": "CC50", "result": "> 100 µM"}
{"Compound": "COC1C=COC2(C)Oc3c(C)c(O)c4c(c3C2=O)C2=NC3(CCN(CC(C)C)CC3)NC2=C(NC(=O)C(C)=CC=CC(C)C(O)C(C)C(O)C(C)C(OC(=O)c2cncnc2)C1C)C4=O (stereo not drawn)", "target or system": "THP-1 derived macrophages", "scale": "relative to: intracellular over extracellular", "endpoint": "intracellular/extracellular ratio", "result": 25}
{"Compound": "CCOC(=O)c1cc(O)c(=O)c(O)cc1C", "target or system": "HepDES19", "test": "cell growth or viability, MTS", "conditions": "72 h", "endpoint": "CC50", "result": "93 µM"}
{"Compound": "O=S(=O)(NCc1ccncc1)c1ccc(C2CCCCC2)cc1", "target or system": "human iPSC-derived microglia-like cells", "test": "cytotoxicity, propidium iodide uptake", "endpoint": "TC50", "result": "0.177 µM"}
{"Compound": "Cc1ccc(S(=O)(=O)Oc2cccccc2=O)cc1", "target or system": "HepDES19", "test": "cell growth or viability, MTS", "conditions": "72 h", "endpoint": "CC50", "result": "30.8 µM"}
{"Compound": "COc1ccc2nccc(CC[C@H]3OC[C@H](NC(=O)c4ccc5c(n4)NC(=O)CS5)CO3)c2c1", "target or system": "HepG2", "test": "cytotoxicity", "conditions": "24 h", "endpoint": "IC50", "result": "> 128 µg/mL"}
{"Compound": "COC1C=COC2(C)Oc3c(C)c(O)c4c(c3C2=O)C2=NC3(CCN(CC(C)C)CC3)NC2=C(NC(=O)C(C)=CC=CC(C)C(O)C(C)C(O)C(C)C(OC(=O)c2cccnc2)C1C)C4=O (stereo not drawn)", "target or system": "THP-1 derived macrophages", "scale": "relative to: intracellular over extracellular", "endpoint": "intracellular/extracellular ratio", "result": 44}
{"Compound": "COc1ccc2ncc(F)c(C[C@H](O)[C@H]3OC[C@H](NCc4ccc(Cl)c(Cl)c4)CO3)c2n1", "target or system": "HepG2", "test": "cytotoxicity", "conditions": "24 h", "endpoint": "IC50", "result": "28 µg/mL"}
{"Compound": "Cc1cc(O)c(=O)c(O)cc1C(=O)c1ccccc1", "target or system": "HepDES19", "test": "cell growth or viability, MTS", "conditions": "72 h", "endpoint": "CC50", "result": "35.5 µM"}
{"Compound": "N=C(N)NCCC[C@@H]1NC(=O)[C@@H](CCCNC(=N)N)NC(=O)[C@H](CCCNC(=N)N)NC(=O)[C@@H](C(c2ccccc2)c2ccccc2)NC(=O)[C@@H](C(c2ccccc2)c2ccccc2)NC(=O)[C@@H](C(c2ccccc2)c2ccccc2)NC(=O)[C@@H](CCCNC(=N)N)NC1=O", "target or system": "human red blood cells", "test": "haemolysis", "conditions": "2 h, 37 °C", "endpoint": "HC50", "result": "160 µg/mL"}
{"Compound": "Cn1ncc(-c2ccc3c(=O)[nH]nc(CN)c3c2)c1-c1c(F)c(Cl)cc(OC2CC2)c1C#N", "target or system": "MRC-5", "test": "cell viability, CellTiter-Glo", "conditions": "120 h", "endpoint": "CC50", "result": "> 3 µM"}
{"Compound": "COC(=O)c1c(C)cc(O)c(=O)c(O)c1Br", "target or system": "HepDES19", "test": "cell growth or viability, MTS", "conditions": "72 h", "endpoint": "CC50", "result": "78.4 µM"}
{"Compound": "N=C(N)NCCC[C@@H]1NC(=O)[C@H](CCCNC(=N)N)NC(=O)[C@H](CCCNC(=N)N)NC(=O)[C@@H](CCCNC(=N)N)NC(=O)[C@H](Cc2ccc3ccccc3c2)NC(=O)[C@H](Cc2ccc3ccccc3c2)NC(=O)[C@H](Cc2ccc3ccccc3c2)NC1=O", "target or system": "human red blood cells", "test": "haemolysis", "conditions": "2 h, 37 °C", "endpoint": "HC50", "result": "170 µg/mL"}
{"note": "Some of these lines once more:"}
{"Compound": "Cc1c(C=NOCc2ccc3nc(-c4ccccc4)c(Nc4ccc(C(=O)O)cc4)n3c2)cnn1CCC(=O)O (mixture of isomers)", "target or system": "TDP1", "test": "enzyme activity, inhibitor", "conditions": "100 µM, unpurified compound", "endpoint": "inhibition", "result": "7.9%"}
{"Compound": "CCOC(=O)c1cc(O)c(=O)c(O)cc1C", "target or system": "HepDES19", "test": "cell growth or viability, MTS", "conditions": "72 h", "endpoint": "CC50", "result": "93 µM"}
{"Compound": "COc1ccc2ncc(F)c(C[C@H](O)[C@H]3OC[C@H](NCc4ccc(Cl)c(Cl)c4)CO3)c2n1", "target or system": "HepG2", "test": "cytotoxicity", "conditions": "24 h", "endpoint": "IC50", "result": "28 µg/mL"}
{"Compound": "Cn1ncc(-c2ccc3c(=O)[nH]nc(CN)c3c2)c1-c1c(F)c(Cl)cc(OC2CC2)c1C#N", "target or system": "MRC-5", "test": "cell viability, CellTiter-Glo", "conditions": "120 h", "endpoint": "CC50", "result": "> 3 µM"}
